Measured values from different studies.
Protocols differ between the studies behind these lines.
Target: Muscarinic acetylcholine receptor M4 (CHRM4, Homo sapiens, UniProt P08173)
Chain of UniProt P08173 (whole entry, looked up): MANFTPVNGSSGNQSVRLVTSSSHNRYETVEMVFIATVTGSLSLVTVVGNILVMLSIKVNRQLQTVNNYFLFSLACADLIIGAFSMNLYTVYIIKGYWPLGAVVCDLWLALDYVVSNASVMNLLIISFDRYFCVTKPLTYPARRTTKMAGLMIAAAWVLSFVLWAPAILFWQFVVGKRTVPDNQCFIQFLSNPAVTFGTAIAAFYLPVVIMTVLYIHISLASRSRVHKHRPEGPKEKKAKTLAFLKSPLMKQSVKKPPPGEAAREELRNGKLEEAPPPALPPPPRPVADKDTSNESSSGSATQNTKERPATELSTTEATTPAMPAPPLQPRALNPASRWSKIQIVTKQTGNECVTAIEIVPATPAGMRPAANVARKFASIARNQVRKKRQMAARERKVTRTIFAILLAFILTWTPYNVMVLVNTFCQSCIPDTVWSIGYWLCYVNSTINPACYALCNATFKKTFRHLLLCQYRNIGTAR

assay | system | conditions | measurement | value | SMILES
radioligand binding, PDSP competition binding | – | 10 µM | inhibition | < 50% | OCCCN1CC[C@@H]2C[C@H]1c1cc(-c3ccc(C(F)(F)F)cc3)ccc12
receptor binding | – | 10 µM, subtype M4 | inhibition | -2.99% | CN(C(=O)n1cnc(-c2ccc[n+]([O-])c2)c1)C1CCCCC1
radioligand binding, radioligand displacement | – | 10 µM, mean of replicates | inhibition | 11.2% | O=C(NO)c1ccc(CN2CCCCc3ccccc32)c(F)c1
PDSP screening | – | – | off-target affinity | inactive | CCCC(CCC)c1nc2c(Nc3ccc(C#CCCCCCCCCN)cc3)nc3ccccc3c2[nH]1
– | – | 10 µM | inhibition | 0% | CCN1/C(=C/C(C)=O)Sc2ccc(F)cc21
agonist response, antagonist | human cells | 10 µM, M4 antagonist | inhibition | 28% | COc1cc(Cl)c(C(=O)N[C@@H](CN[C@H]2CC[C@@H](N)CC2)Cc2ccc(C#N)cc2)cc1-c1ccc(CN[C@H](C)c2ccc(C)cc2)o1
– | – | 10 µM | inhibition | 19.9% | CCS(=O)(=O)c1nc(S(=O)(=O)c2ccccc2Cl)c(N2CCN(C)C(=O)[C@H]2C)s1
beta-arrestin recruitment, antagonist, PathHunter chemiluminescence | – | 20 µM, together with: agonist at EC80 | inhibition | 75% | CC[C@]12CCCN3CCc4c([nH]c5ccccc45)[C@]31N(Cc1cn(Cc3ccccc3)nn1)C(=O)C2
